# Measurements collected from several papers.
# Numbered parts are unrelated; each lists some results of a single study. Changes are numbered by the printed parent chain.
# Chain of UniProt P15735 (whole entry, looked up): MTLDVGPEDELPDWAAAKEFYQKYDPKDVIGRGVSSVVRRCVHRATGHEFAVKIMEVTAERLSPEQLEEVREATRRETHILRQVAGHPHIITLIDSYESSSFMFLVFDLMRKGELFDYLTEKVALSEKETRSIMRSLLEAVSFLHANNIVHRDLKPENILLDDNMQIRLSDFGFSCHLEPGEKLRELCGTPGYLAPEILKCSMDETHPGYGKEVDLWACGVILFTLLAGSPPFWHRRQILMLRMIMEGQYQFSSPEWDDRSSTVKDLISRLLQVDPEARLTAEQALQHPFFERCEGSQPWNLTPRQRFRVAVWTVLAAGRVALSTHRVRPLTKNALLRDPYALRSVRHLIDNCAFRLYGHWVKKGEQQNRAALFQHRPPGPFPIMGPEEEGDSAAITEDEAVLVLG
# Chain of UniProt P10721 (whole entry, unmodified, looked up): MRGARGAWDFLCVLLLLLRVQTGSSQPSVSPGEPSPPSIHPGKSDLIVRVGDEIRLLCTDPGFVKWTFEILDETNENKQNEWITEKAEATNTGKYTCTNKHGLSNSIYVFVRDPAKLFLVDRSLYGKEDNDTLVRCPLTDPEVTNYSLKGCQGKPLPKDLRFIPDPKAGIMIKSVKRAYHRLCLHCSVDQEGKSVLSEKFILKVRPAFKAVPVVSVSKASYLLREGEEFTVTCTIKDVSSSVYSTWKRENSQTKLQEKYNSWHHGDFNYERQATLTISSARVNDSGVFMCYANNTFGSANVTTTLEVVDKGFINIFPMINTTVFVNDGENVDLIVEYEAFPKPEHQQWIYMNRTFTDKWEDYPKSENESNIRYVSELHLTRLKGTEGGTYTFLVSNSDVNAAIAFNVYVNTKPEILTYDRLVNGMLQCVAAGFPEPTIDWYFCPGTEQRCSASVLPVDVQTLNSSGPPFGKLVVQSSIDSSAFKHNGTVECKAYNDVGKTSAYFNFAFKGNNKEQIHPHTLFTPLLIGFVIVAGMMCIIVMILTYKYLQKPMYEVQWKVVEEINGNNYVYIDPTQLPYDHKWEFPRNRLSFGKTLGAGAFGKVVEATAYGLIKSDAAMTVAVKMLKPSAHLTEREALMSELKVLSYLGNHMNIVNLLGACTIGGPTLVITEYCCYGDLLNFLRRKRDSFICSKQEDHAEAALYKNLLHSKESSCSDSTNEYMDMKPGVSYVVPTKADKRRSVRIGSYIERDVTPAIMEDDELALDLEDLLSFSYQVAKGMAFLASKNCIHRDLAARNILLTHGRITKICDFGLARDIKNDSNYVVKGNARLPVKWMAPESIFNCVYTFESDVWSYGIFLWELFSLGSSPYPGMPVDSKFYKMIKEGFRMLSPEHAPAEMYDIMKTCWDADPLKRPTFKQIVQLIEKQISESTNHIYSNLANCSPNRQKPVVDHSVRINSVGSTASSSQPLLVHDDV
# Chain of UniProt P51957 (whole entry, looked up): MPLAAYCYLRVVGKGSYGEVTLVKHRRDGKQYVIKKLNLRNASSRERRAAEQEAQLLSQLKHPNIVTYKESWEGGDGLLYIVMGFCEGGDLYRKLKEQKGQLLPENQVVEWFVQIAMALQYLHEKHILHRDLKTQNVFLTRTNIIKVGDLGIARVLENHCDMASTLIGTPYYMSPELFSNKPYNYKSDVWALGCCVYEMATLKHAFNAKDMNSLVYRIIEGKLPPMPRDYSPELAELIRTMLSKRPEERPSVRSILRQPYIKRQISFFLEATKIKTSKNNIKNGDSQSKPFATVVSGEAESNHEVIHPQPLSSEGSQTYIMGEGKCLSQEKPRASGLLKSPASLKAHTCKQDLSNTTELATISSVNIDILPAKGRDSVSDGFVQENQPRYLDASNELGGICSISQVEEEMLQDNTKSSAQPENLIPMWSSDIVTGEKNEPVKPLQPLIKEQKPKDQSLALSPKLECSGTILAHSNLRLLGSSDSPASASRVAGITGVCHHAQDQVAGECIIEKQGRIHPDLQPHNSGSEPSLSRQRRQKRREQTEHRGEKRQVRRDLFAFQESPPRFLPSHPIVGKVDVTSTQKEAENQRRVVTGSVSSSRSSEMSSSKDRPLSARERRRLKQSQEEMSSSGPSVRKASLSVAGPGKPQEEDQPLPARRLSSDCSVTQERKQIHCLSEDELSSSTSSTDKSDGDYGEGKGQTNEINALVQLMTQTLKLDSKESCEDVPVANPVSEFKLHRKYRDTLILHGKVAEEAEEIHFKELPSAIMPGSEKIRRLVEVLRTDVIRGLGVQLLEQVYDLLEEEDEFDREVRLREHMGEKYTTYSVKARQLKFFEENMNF
# Chain of UniProt Q16659 (whole entry, looked up): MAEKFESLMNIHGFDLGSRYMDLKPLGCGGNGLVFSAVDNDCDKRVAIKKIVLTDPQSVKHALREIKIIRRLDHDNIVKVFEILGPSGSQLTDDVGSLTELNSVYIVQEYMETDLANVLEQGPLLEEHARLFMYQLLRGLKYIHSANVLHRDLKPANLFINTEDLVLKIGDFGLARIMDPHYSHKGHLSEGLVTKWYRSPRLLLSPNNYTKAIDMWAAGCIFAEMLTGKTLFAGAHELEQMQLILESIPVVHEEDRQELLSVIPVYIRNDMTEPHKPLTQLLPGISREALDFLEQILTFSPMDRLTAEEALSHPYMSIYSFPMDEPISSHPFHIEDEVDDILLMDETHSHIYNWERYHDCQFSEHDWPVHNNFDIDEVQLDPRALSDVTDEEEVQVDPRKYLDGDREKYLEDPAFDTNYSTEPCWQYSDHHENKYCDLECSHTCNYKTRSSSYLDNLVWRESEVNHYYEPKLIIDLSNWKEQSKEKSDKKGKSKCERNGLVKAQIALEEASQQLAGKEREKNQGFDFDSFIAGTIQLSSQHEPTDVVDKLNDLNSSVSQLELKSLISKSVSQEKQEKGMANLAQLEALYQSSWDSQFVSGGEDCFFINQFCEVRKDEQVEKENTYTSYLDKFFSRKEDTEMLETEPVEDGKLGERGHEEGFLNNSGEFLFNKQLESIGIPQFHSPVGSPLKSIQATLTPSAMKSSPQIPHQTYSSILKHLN
# Chain of UniProt P25098 (whole entry, looked up): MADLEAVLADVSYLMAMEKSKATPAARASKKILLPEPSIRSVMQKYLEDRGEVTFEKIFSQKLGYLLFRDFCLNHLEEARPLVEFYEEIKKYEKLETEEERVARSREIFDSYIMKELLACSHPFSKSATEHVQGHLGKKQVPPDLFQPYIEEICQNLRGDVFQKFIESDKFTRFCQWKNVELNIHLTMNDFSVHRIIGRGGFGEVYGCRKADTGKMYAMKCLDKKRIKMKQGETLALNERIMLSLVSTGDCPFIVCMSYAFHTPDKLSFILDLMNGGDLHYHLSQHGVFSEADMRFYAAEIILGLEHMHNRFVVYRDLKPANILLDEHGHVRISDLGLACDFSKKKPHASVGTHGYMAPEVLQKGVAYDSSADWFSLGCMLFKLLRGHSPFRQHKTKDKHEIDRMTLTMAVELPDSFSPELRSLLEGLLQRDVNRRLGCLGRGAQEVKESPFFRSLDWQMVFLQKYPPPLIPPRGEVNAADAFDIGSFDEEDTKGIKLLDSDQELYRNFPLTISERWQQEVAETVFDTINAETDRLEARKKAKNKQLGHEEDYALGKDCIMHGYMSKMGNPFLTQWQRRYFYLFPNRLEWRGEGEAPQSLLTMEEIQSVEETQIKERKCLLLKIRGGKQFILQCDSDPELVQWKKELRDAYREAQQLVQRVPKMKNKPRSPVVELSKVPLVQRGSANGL
# Chain of UniProt Q9UQB9 (whole entry, looked up): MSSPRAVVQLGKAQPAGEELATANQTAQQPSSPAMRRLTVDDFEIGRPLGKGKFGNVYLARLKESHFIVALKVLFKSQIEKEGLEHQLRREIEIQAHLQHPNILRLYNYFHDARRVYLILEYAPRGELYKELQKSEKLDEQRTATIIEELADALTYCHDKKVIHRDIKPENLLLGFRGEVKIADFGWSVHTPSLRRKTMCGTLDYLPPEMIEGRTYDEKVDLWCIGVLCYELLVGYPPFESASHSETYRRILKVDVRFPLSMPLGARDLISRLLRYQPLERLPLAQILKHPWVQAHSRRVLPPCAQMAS

# Series 1
# Target: RNA binding protein fox-1 homolog 2, RRM domain, GST-SBP tag (RBFOX2, Homo sapiens, UniProt O43251-10, residues 100-194)
# Method: RNA Bind-n-Seq
# Form: RNA
# Matrix: in vitro
# Concentration: 365 nM
# Notes: natural RNA segment, single round, ends assumed
# Reference: no-protein control
# Direction: higher = stronger binding
Strand,RBNS enrichment (R)
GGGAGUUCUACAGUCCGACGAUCCUCUUGUCUCCCACCCUGAGAUUGGGCAUGGGGUGCGGUGUGGGGGGCAUGUGCUGCCUGUUGUUAUGGGUUUUUUUUGCGGGGGGGGUUGCUUUUUUCUGGGGUCUUUGUGGAAUUCUCGGGUGCCAA,9.3
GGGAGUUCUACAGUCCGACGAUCUGAAGGAGGUGGGUGGAAACGGCUCUUGUUUGAAAGAACUUAGGGAGGACCAUUGGCUUGCCAAGAGUACAGAAAUUCAUUAUGCUGCUAAUUUAACGUGGAAUUCCUUCUGGAAUUCUCGGGUGCCAA,0.527
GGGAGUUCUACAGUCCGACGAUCCUAUAUCAACUUUGGUAUCUACUUUCCGUUUACUUCAAUCCUUGCCUUUUUGGUCAUUGUUAUAAUGCCAGCUUUAGGACAGAAAGAAUUAUAAGAAAACCAGCAUAAUAUGGAAUUCUCGGGUGCCAA,0.364
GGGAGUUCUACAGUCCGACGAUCGGCAGGAAUAAUAACUUUUACAUUUGUAUCUCUGCACCCCCGAGUGCCUAGUAUAGUGCUGAGCACAUAGUAGGCGUUUAAUAAAUGCUUGUUGAAGUAUUGUGUGGAUUUGGAAUUCUCGGGUGCCAA,0.586
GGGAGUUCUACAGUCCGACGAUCUUGUUCACUGCAGUCUUAAGAAAGAGGUAAAAGGCAAGCAAAGGAGAUGAAAUCUGUUCUGGGAAUGUUUCAGCAGCCAAUAAGUGCCCGAGCACACUGCCCCCGGUUGCUGGAAUUCUCGGGUGCCAA,1.06
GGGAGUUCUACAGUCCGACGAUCUUGGGAAACUGUCCAGCCACGUUUCCAUUACUCGGAGCUCUCGGUUACCUUCAGACAUGGUGCCGUGUUGGGAGCAACCUCAGUGGGUUUGCACUACACUCACUCCGUGCUGGAAUUCUCGGGUGCCAA,0.562
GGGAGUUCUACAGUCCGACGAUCGUGGAUGAUUAACGGGCCUUUUUCACUUAGAAGCUGCACAUUAUGGAGCAUUAAACACUUUUGUCAUGAUGCUGGUGGCCUUCUGCUUGCUUGUAUCCCUGGCCUGGGUCUGGAAUUCUCGGGUGCCAA,0.795
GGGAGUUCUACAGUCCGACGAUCUGUUUUGUUUUACAAUGUCAGACUGCCAUGUUCAAGUUUUAAUUUCCUCAUAGAGUGUAUUUACAGAUGCCCUUUUUUGUACUUUUUUUUUUAAUUGUGAUCUAUUUUGGUGGAAUUCUCGGGUGCCAA,1.05

# Series 2
# Target: Platelet-derived growth factor receptor beta (PDGFRB, Homo sapiens, UniProt P09619)
# Chain of UniProt P09619 (whole entry, looked up): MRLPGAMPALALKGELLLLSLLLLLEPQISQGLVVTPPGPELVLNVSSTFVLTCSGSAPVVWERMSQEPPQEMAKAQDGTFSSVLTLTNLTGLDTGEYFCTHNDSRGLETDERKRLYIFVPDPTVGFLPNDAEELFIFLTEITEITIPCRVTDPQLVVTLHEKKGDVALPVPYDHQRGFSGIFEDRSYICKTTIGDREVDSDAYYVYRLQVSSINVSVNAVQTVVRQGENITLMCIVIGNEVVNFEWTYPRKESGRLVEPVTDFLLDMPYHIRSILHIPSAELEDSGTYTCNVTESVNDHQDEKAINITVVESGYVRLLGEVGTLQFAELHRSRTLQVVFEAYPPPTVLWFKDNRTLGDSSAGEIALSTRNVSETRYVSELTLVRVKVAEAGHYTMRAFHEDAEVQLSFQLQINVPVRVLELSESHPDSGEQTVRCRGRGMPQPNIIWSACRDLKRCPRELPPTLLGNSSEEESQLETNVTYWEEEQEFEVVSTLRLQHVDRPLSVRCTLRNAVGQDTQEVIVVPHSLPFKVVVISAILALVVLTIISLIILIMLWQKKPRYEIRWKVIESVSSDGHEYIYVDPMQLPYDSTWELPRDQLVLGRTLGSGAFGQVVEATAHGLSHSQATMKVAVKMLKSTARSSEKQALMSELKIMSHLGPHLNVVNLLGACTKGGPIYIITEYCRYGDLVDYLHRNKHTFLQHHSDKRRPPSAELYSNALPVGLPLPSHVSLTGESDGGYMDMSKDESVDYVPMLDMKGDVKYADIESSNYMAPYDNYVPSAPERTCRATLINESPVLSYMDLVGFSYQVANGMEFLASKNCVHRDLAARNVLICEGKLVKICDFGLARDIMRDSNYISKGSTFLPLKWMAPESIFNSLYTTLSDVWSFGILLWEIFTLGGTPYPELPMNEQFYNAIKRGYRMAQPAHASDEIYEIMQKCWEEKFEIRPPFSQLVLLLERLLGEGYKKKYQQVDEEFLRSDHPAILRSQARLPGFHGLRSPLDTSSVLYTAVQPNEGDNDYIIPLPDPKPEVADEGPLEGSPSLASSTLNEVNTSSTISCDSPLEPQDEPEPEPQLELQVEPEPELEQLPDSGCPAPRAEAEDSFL
# Observed: enzyme activity
# Action: inhibitor
# Concentration: 0.5 µM
# Reference: control
Compound,remaining activity [%]
Nc1ncnc2n[nH]c(Nc3ccc(F)cc3)c12,98
COc1ccc(C(=O)Nc2sc3c(c2C(N)=O)CCCC3)cc1OC,90.9
CC(C)[C@H](CO)Nc1nc(Nc2cc(N)cc(Cl)c2)c2ncn(C(C)C)c2n1,98.1
N#CC(C#N)=C(N)/C(C#N)=C/c1ccc(O)cc1,98.8
CCOC(=O)c1c(C)[nH]c(/C=C2\C(=O)Nc3ccccc32)c1C,69.1
O=C1NC(=O)C(c2cn(CCCn3ccnc3)c3ccccc23)=C1Nc1ccccc1,76.5
O=S(=O)(c1cccc2cnccc12)N1CCCNCC1,102
COc1cc2ncnc(Nc3ccc(Oc4ccccc4)cc3)c2cc1OC,95.6
Cc1ccc(Nc2nccc(N(C)c3ccc4c(C)n(C)nc4c3)n2)cc1S(N)(=O)=O,40.4
C#Cc1cccc(Nc2ncnc3cc(OCCOC)c(OCCOC)cc23)c1,91.1
Cn1sc(=O)n(Cc2ccccc2)c1=O,87.3
Cn1c2ccccc2c2c3c(c4c5ccccc5n(CCC#N)c4c21)CNC3=O,60.6
O=C(O)c1ccc2c3c1cccc3c(=O)n1c3ccccc3nc21,107

# Series 3
# Target: ABI1, truncated, D143A, DHFR fusion (Arabidopsis thaliana)
# Method: DHFR PCA, deep sequencing
# Matrix: yeast
# Notes: methotrexate growth selection, single substitutions
# Together with: (+)-ABA 710 µM
# Reference: wild-type fitted maximum
# Direction: higher = stronger binding
# Starting sequence: PYL1, truncated, DHFR fusion (Arabidopsis thaliana); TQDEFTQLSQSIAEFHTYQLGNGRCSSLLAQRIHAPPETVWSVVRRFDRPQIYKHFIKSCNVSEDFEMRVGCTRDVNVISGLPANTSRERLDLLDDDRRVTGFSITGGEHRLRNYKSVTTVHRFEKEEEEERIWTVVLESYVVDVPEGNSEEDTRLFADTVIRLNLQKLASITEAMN; partner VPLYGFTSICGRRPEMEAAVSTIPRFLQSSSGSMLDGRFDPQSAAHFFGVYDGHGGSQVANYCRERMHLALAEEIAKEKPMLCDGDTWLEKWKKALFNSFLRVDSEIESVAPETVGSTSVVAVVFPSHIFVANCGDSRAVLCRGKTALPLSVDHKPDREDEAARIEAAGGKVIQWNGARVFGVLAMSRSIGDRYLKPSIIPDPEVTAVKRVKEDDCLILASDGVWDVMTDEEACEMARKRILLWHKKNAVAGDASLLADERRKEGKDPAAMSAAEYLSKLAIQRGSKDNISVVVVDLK
Substitution,relative binding score
V145P,78.8%
S42W,89.6%
D159M,49.5%
D97N,110%
E152K,100%
I172C,98.9%
S59D,101%
V137F,-0.283%

# Series 4
# Structure (SMILES): Cn1cc(Cl)c2c(Oc3c(F)cc(Nc4cc(Cl)nc(N)n4)cc3F)ccnc21
# Observed: cell-free assay
# Method: competition with immobilised ligand
# Concentration: 0.1 µM
target,remaining binding [%]
"CDKL1 (Homo sapiens, UniProt Q00532)",100
"PHKG2 (Homo sapiens, UniProt P15735)",100
"NEK4 (Homo sapiens, UniProt P51957)",84
"KIT (Homo sapiens, UniProt P10721, L576P)",100
"SRMS (Homo sapiens, UniProt Q9H3Y6)",100
"MKNK1 (Homo sapiens, UniProt Q9BUB5)",100
"GRK2 (Homo sapiens, UniProt P25098)",81
"ULK2 (Homo sapiens, UniProt Q8IYT8)",100
"ERBB2 (Homo sapiens, UniProt P04626)",95
"MAPK6 (Homo sapiens, UniProt Q16659)",100
"WEE1 (Homo sapiens, UniProt P30291)",91
"BRAF (Homo sapiens, UniProt P15056, V600E)",100
"Tyrosine-protein kinase ABL1, non-phosphorylated (ABL1, Homo sapiens, UniProt P00519, T315I)",84
"Aurora kinase C (AURKC, Homo sapiens, UniProt Q9UQB9)",97

# Excerpt of the above (series 1):
Strand,RBNS enrichment (R)
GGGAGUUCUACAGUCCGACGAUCUUGUUCACUGCAGUCUUAAGAAAGAGGUAAAAGGCAAGCAAAGGAGAUGAAAUCUGUUCUGGGAAUGUUUCAGCAGCCAAUAAGUGCCCGAGCACACUGCCCCCGGUUGCUGGAAUUCUCGGGUGCCAA,1.06
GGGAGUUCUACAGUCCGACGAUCUUGGGAAACUGUCCAGCCACGUUUCCAUUACUCGGAGCUCUCGGUUACCUUCAGACAUGGUGCCGUGUUGGGAGCAACCUCAGUGGGUUUGCACUACACUCACUCCGUGCUGGAAUUCUCGGGUGCCAA,0.562
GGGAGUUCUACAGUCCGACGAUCCUCUUGUCUCCCACCCUGAGAUUGGGCAUGGGGUGCGGUGUGGGGGGCAUGUGCUGCCUGUUGUUAUGGGUUUUUUUUGCGGGGGGGGUUGCUUUUUUCUGGGGUCUUUGUGGAAUUCUCGGGUGCCAA,9.3
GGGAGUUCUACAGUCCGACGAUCGUGGAUGAUUAACGGGCCUUUUUCACUUAGAAGCUGCACAUUAUGGAGCAUUAAACACUUUUGUCAUGAUGCUGGUGGCCUUCUGCUUGCUUGUAUCCCUGGCCUGGGUCUGGAAUUCUCGGGUGCCAA,0.795
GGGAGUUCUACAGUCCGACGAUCGGCAGGAAUAAUAACUUUUACAUUUGUAUCUCUGCACCCCCGAGUGCCUAGUAUAGUGCUGAGCACAUAGUAGGCGUUUAAUAAAUGCUUGUUGAAGUAUUGUGUGGAUUUGGAAUUCUCGGGUGCCAA,0.586
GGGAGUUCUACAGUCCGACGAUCUGUUUUGUUUUACAAUGUCAGACUGCCAUGUUCAAGUUUUAAUUUCCUCAUAGAGUGUAUUUACAGAUGCCCUUUUUUGUACUUUUUUUUUUAAUUGUGAUCUAUUUUGGUGGAAUUCUCGGGUGCCAA,1.05
